Published values from different studies.
Every numbered part comes from another study and shows a few of its results, in no order. Changes are numbered by the printed parent chain.

Set 1
Target: ABI1, truncated, D143A, DHFR fusion (Arabidopsis thaliana)
Technique: DHFR PCA, deep sequencing
Medium: yeast
Setting: methotrexate growth selection, single substitutions
With: (+)-ABA 0.11 µM
Reference: wild-type fitted maximum
Reading: higher = stronger binding
Starting sequence: PYL1, truncated, DHFR fusion (Arabidopsis thaliana); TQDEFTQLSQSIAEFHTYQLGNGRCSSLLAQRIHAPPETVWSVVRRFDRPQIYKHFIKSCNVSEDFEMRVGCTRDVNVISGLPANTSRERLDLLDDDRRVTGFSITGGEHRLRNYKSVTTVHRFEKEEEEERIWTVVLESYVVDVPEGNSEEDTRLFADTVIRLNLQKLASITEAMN
Change	relative binding score
C60E	-3.12%
F56I	-0.22%
M68A	4.48%
R24H	8.82%
R123E	48.8%
D96M	-6.64%
H110P	74.9%
T173D	1.23%
N149D	18.1%
F47L	11.9%
R163I	-13.1%
S171V	28.1%
V76S	-0.204%
A170M	8.27%
E128F	22.2%
T39P	-7.86%

Set 2
Target: Interferon regulatory factor 5, full length, phosphomimetic (IRF5, Homo sapiens, UniProt Q13568-2, residues 1-514, K96S/S451D/S453D/S456D/S462D)
Technique: protein-binding microarray
Molecule type: double-stranded DNA, one strand shown
Medium: in vitro
Concentration: 250 nM
Setting: 60-bp whole probe
With: salmon DNA 0.4 mg/ml
Reference: random background probes
Reading: higher = stronger binding
Shared flanks, not repeated: GCCTAGCAC … GTCTTGATTCGCTTGACGCTGCTG
Oligonucleotide	log fluorescence [z-score]
ATCTTTTTCCCTATTATATAGTGCTAG	2
TTAGGTATCCTTCCCCTTTAGTGCTAG	0.0575
TTAGGTTTCGACTCTGGGTTAGTGCTA	6.37
GACGGTATCGTCACTGGGGACGTGCTA	0.537
TACGGTTTCCTTTCCCTGACGTGCTAG	1.69
TTAGGTTTGGGGTTTCGGTTAGTGCTA	5.99
TTAGAACTGAGTTTCGTTTAGTGCTAG	7.68
GACGATTTCAGTTCCGGGACGTGCTAG	1.55
TCAAATTTTGTCATCTAACTGTGCTAG	0.632
GACAGTATCGGGACTGGGGACGTGCTA	2.47
TTAGGTATCGGGCATCGGTTAGTGCTA	2.39
TTAGGACTGGCACTGGGTTAGTGCTAG	-0.325
GACCGTCTCGGTTTCGGGACGTGCTAG	3.51
TCAAATTGTCCTTTCACACTGTGCTAG	0.978
TTCTCTTTCACTGCTGCCCTGTGCTAG	4.19
TTAGATATCAGACTGGATTTGTGCTAG	0.374
TCTACTGTCTGTTTCCTCTTGTGCTAG	0.937
GAGGAACTGAGTCTCGAGACGTGCTAG	-0.475
ACAGATGAGGAACCAAGGCCGTGCTAG	-0.246
GGGTGAATGTGTCTTAAATAGTGCTAG	-0.285
TTAGGCCTGGACACTGGGTTAGTGCTA	-0.566

Set 3
Target: CEP164, C-terminal peptide (human)
Technique: DHFR complementation, deep sequencing
Medium: yeast
Setting: single substitutions, model-inferred values
Reference: wild type
Reading: higher = weaker binding
Starting sequence: PDZK1, PDZ domain 2 (human); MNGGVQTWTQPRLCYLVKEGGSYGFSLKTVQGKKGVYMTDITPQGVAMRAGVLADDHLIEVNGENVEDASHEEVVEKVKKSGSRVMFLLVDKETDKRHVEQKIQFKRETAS; partner HNRVKVYRF
Change	binding free energy change [kcal/mol]
A47R	0.657
S81P	0.51
K34R	0.0885
Q31D	0.0767
P11E	0.333
W8T	-0.0114
K80D	0.592
L88G	-0.181
N2H	-0.0737
E100I	-0.0615
H98C	-0.0341
E19L	0.451
R97Y	-0.174
G4C	0.0195
D91F	0.231
F87N	1.8

Set 4
Target: CCND1, cyclin fold, Cln2 fusion (human)
Technique: yeast growth competition, sequencing
Medium: yeast
Setting: weak parent motif
Reference: not given
Reading: higher = stronger binding
Starting sequence: MASTL docking peptide (human); PMIAKNLMCELDE
Change	normalised enrichment score
C9K	-0.0361
M2V	0.318
K5T	-0.223
M2Q	0.386
E10G	-0.00454
A4M	0.0896
L7R	-0.21
I3P	0.101
C9Q	0.326
M2W	0.0681
C9H	-0.361
L11N	0.16
L11F	-0.0697
D12T	0.204
E10L	0.186
M2R	0.256
L11A	-0.00361
E10Q	0.24
M8F	0.255
D12V	0.195
M2F	0.318
E10N	0.0644
M8D	0.3
K5H	-0.148
D12M	0.325

Set 5
Target: RING finger protein unkempt homolog, zinc fingers 1-6, GST-SBP tag (UNK, Homo sapiens, UniProt Q9C0B0, residues 30-357)
Chain of UniProt Q9C0B0 (30-357, looked up): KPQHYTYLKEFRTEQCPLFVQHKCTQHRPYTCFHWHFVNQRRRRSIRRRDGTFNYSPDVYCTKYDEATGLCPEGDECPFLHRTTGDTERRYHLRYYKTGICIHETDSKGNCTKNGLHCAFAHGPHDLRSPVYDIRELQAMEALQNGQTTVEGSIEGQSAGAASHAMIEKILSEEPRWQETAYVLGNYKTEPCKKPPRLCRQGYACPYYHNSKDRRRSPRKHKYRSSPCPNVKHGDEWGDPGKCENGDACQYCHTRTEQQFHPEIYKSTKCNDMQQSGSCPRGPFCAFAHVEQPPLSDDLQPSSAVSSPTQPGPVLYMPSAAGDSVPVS
Technique: RNA Bind-n-Seq
Molecule type: RNA
Medium: in vitro
Concentration: not given
Setting: RNA with constant flanks, human and mouse sites, ends assumed
Reference: input RNA pool
Reading: higher = stronger binding
Oligonucleotide	bound/input enrichment [ratio]
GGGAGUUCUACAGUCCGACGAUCAAAGUCUCCAAUUUGGUUUUCAACCUUAUCUACAAGGUUGAAGAAUUCACUGUGUUUUUCUAGGUUUCAGAGCCACUUGAUGUCUGCUACAAUGAGCUUGUGCAGUAGGUGCUAUAGAUCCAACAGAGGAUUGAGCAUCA	0.344
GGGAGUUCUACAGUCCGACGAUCAGUUUUGUCUGAGAUGCACCUUGCAUGGUACGUGUGUGAGAGGUUGUGCAAGUUCUGAGACUUAGACAAUUCAGAAGUCACCCUUCUGAGGGAACAGUUCCCAAAAUGGAGCAAUAAAGGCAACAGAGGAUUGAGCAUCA	0.247
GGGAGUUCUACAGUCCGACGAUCAAAGUGAAACUGGCAGCUGUGGAUGCUACAGUCAAUCAGGUUCUGGCCUCCCGAUACGGGAUUAGAGGAUUUCCUACAAUCAAGAUAUUUCAGAAAGGCGAGUCUCCUGUGGAUUAUGACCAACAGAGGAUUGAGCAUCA	0.215
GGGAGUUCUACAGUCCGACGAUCCAUGGCGCACUGGACGCCCUCACCCAACUGGGCAACUGCGCCUGGCGCGUCAACGGGCGCGUGCUGGACCUGGUGCUGCAGCUCUUCCAGGCCAAGGGCUGCCCCCAGCUAGGCGUGCCGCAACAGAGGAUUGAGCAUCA	0.0996
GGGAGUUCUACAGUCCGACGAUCACCGGCGCAGUGCCCCGUCCUGAUUGAUCGCAUCGCUGGGCUCAGAUGACUGUAAAAUGAAUAGAUGAAAUCCUUGCUUCUGGAAGAUUUUCUUGGGCAUCUCCGGGAAAGUGCGUUUUACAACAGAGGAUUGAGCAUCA	0.223
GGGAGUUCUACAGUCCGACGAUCGAUGAACUAGAAGAUGAUGAUUUUGACAGCAAUGCAGUUGCAGGCGAGAGUGCUCUAGAUCGAAUGGCUUGCGGACUUGGUGGAAAGCUCGUUCUGCCGAUGAUCAAGGAACACAUUAUGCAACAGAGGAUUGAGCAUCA	0.356
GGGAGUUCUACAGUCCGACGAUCAACCGGUGCAUGGUAGAAAUUGUCCAGAAAUAUGACCCAGAAAAAGACGAGUGGCAUAAAGUUUUUGAUCUUCCUGAGUCGCUGGGUGGCAUUCGGGCUUGCACUCUCACAGUUUUUCCACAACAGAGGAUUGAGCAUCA	0.144
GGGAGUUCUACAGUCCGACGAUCGGGGUUCUUGCUGCCGUUCUAAUAUUUUUUUAAGCAUAGACAGACUUAUAAUUAAUAUACGUUAGUUAGUGACAUUGAAACAGUCAACUCGGAAAUUAACUAUAAGACUUGUUCUAUUUACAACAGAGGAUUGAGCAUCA	0.916
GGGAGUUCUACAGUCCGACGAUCGUUCACCUGCAGCAGCCAACUUCUAGUCCUCAGGACAGCAGUAGCUUUGAAUCCAGAGGAAGUGAUGGUGGAAGCAUGCUUAAAGCUCUGCCUUUGAAGAGUAGUCUUACUCCAAGUUCUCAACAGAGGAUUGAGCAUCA	0.179
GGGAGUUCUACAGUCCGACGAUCGACAGUGAAGGCCCACUGUGUGAAUUGCUUUUUUUCUUCCUGACUGCAAUCUUCCAGGCAAUAGCUGAAGAAGAAGAGGAAGUAGCCAAAGAGCAACUAACUGAUGCUGACACCAAAGAUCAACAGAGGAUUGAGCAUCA	0.0707
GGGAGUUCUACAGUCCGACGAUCGACAGCGACCUGCAGCUGGACCGAAUCUCUGUGUACUAUAAUGAAGCCACAGGUGGCAAGUAUGUCCCUCGAGCUAUCUUGGUGGAUCUAGAACCUGGGACUAUGGACUCCGUUCGCUCACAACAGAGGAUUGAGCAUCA	0.104

Other studies, line by line
Substance	target	assay	system	conditions	how to read	quantity	result
PhoQ, residues 284 288 289 292 302 303 SSCCRF	PhoP, residues 12 14 15 18 19 LQHIR (Escherichia coli, UniProt P23836)	Sort-seq, item: YFP reporter	E. coli	PhoQ-PhoP variant library, with: 10 µM Mg2+	reference: high Mg2+ state, higher = stronger signaling	fold induction	12.3

A few entries again (set 2):
Oligonucleotide	log fluorescence [z-score]
TTAGGTATCCTTCCCCTTTAGTGCTAG	0.0575
TTAGGTTTCGACTCTGGGTTAGTGCTA	6.37
GACGGTATCGTCACTGGGGACGTGCTA	0.537
TACGGTTTCCTTTCCCTGACGTGCTAG	1.69
TTAGGTTTGGGGTTTCGGTTAGTGCTA	5.99
